Results of several laboratories.
Lines come from different studies, so protocols differ.
Matrix: plasma

COc1ccc([C@@H](O)c2cc(-c3ncnc4cc(N5CCOCC5)ccc34)c(F)cc2Cl)nn1 — Cmax geometric LS mean (mixed model; healthy volunteers; oral, 100 mg, fasted oral suspension test arm): 480 ng/mL
O=C(c1cccnc1-c1ccncc1)N1CCC(O)(Cc2ccccc2)CC1 — Cmax (healthy Japanese adults; oral, 200 mg single dose, geometric mean, PK/QTc set): 413 ng/mL
NC(=O)c1[nH]cnc1N — Cmax reduction (leiomyosarcoma patients; intravenous, dose not given, cycle 2 day 1, with: dacarbazine co-administered; relative to: cycle 1 day 1): 77.4%
CNC(=O)c1cc(Oc2ccc(NC(=O)Nc3ccc(Cl)c(C(F)(F)F)c3)cc2)ccn1 — Cmax ratio (patients; oral, with: rifampin; relative to: with over without rifampin): 1.25
N#CCNC(=O)c1ccc(-c2ccnc(Nc3ccc(N4CCOCC4=O)cc3)n2)cc1 — Cmax increase (healthy volunteers; dose not given, with: rifampin multiple-dose; relative to: with single-dose rifampin): 31%
CNC(=O)c1cc(Oc2ccc(NC(=O)N(c3ccc(Cl)c(C(F)(F)F)c3)[C@@H]3O[C@H](C(=O)O)[C@@H](O)[C@H](O)[C@H]3O)cc2)ccn1 — Cmax ratio (patients; oral, geometric mean, with: rifampin; relative to: with rifampin over without rifampin): 2.1
N[C@@H]1c2ccccc2OC12CCN(c1cnc3c(N4CCCc5ncccc54)n[nH]c3n1)CC2 — Cmax (advanced metastatic solid tumour patients; oral, 50 mg once daily, cycle 1 day 15, geometric mean): 635 ng/mL
COC(=O)c1ccc2c(c1)NC(=O)/C2=C(\Nc1ccc(N(C)C(=O)CN2CCN(C)CC2)cc1)c1ccccc1 — Cmax geometric LS mean (healthy volunteers; oral, 150 mg, with: pirfenidone): 30.4 ng/mL
N#CCNC(=O)c1ccc(-c2ccnc(Nc3ccc(N4CCOCC4)cc3)n2)cc1 — Cmax decrease (healthy volunteers; oral, dose not given, with: rifampin multiple-dose; relative to: with single-dose rifampin): 29%

Excerpt of the above:
NC(=O)c1[nH]cnc1N — Cmax reduction (leiomyosarcoma patients; intravenous, dose not given, cycle 2 day 1, with: dacarbazine co-administered; relative to: cycle 1 day 1): 77.4%
